Published values of several laboratories.
Protocols differ between the studies behind these lines. Values joined by “and” are separate records of one study, mostly repeats; a detail may differ. Numbers after ± are the reported error.
CTSB: Cathepsin B (CTSB, Homo sapiens, UniProt P07858)
Beta sliding clamp: Beta sliding clamp (Escherichia coli, UniProt P0A988)
UniProt Q9UM07, sequence (whole entry, looked up): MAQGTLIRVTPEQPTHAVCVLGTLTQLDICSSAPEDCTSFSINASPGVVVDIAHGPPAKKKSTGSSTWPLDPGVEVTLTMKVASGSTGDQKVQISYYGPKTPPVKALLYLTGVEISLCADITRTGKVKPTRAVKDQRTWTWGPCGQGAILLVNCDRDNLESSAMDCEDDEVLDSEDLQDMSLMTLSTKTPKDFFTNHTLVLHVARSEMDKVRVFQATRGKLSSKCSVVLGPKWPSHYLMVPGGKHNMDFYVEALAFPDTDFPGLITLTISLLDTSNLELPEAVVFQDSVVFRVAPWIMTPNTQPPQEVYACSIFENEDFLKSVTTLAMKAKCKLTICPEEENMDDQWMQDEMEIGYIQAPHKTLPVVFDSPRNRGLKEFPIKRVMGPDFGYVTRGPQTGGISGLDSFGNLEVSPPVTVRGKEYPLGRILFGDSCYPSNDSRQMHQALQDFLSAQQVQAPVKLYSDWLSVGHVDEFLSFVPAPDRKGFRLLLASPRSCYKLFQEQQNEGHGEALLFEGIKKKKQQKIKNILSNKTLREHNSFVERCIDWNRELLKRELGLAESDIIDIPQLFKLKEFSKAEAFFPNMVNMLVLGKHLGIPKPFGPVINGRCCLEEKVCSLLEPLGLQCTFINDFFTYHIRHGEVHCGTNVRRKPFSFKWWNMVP
UniProt P0A988, sequence (whole entry, looked up): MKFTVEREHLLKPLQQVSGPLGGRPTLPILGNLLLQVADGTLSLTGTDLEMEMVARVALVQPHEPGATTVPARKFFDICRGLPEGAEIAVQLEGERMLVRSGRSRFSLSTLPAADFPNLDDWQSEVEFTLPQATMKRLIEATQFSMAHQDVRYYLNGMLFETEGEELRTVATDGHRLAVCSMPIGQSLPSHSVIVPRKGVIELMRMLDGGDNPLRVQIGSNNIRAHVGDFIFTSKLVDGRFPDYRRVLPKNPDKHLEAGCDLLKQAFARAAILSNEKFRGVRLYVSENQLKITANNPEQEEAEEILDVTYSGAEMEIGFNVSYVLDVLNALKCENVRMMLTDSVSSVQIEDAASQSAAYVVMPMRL
UniProt P53779, sequence (whole entry, looked up): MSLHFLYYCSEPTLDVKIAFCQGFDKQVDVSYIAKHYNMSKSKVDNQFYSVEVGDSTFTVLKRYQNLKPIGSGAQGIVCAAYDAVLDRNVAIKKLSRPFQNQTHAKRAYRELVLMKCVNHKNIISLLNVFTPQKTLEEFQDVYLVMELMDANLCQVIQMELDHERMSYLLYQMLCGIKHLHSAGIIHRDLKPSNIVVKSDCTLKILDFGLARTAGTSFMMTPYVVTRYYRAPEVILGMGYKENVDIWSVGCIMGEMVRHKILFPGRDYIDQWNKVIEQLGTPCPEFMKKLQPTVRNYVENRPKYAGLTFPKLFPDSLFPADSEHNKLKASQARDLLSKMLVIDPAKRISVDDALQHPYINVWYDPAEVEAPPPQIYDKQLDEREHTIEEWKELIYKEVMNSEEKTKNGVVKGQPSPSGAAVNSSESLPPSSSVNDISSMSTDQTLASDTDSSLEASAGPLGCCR
UniProt Q6DWJ6, sequence (whole entry, looked up): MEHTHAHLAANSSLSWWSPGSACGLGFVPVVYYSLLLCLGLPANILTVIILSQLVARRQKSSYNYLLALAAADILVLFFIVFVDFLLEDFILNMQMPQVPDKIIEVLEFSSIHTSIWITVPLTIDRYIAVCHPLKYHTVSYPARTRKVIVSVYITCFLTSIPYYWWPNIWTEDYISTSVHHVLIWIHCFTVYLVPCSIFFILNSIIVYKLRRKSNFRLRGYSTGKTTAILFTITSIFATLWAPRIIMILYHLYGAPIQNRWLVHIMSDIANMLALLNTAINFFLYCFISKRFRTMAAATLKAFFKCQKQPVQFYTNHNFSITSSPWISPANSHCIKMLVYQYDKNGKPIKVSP
UniProt P0C264, sequence (whole entry, looked up): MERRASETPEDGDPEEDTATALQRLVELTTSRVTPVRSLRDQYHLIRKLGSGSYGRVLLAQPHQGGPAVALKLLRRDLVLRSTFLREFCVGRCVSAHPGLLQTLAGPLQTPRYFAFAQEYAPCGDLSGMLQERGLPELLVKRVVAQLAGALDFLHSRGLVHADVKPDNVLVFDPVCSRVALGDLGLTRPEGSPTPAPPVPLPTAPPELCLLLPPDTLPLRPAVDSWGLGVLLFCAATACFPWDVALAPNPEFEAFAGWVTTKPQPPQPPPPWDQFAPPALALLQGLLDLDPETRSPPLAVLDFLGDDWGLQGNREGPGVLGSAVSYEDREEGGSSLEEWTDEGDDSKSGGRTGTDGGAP
UniProt P52824, sequence (whole entry, looked up): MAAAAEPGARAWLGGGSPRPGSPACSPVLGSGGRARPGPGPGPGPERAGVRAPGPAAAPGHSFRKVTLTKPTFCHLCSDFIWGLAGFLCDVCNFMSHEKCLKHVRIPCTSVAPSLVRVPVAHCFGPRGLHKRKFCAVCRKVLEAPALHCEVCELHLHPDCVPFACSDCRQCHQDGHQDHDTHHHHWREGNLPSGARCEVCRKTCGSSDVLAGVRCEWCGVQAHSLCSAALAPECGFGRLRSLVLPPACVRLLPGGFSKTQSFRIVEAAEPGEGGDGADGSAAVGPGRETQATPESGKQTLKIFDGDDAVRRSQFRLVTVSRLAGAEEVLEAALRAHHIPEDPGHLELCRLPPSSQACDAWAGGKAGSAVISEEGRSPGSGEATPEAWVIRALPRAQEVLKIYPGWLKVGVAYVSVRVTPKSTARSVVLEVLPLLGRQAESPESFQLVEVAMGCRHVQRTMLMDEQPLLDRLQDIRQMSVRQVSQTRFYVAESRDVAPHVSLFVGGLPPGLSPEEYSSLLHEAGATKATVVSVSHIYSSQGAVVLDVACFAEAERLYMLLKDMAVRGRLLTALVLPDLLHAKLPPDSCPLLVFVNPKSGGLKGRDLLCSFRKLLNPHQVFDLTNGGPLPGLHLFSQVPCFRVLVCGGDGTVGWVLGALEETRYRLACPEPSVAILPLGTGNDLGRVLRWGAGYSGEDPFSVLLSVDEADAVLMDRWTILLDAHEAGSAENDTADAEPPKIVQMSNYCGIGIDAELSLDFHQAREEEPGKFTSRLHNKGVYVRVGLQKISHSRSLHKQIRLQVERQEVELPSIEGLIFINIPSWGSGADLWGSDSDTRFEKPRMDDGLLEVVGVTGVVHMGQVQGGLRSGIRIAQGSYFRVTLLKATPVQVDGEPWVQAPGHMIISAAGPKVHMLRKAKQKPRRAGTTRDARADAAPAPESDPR
UniProt Q704Y3, sequence (whole entry, unmodified, looked up): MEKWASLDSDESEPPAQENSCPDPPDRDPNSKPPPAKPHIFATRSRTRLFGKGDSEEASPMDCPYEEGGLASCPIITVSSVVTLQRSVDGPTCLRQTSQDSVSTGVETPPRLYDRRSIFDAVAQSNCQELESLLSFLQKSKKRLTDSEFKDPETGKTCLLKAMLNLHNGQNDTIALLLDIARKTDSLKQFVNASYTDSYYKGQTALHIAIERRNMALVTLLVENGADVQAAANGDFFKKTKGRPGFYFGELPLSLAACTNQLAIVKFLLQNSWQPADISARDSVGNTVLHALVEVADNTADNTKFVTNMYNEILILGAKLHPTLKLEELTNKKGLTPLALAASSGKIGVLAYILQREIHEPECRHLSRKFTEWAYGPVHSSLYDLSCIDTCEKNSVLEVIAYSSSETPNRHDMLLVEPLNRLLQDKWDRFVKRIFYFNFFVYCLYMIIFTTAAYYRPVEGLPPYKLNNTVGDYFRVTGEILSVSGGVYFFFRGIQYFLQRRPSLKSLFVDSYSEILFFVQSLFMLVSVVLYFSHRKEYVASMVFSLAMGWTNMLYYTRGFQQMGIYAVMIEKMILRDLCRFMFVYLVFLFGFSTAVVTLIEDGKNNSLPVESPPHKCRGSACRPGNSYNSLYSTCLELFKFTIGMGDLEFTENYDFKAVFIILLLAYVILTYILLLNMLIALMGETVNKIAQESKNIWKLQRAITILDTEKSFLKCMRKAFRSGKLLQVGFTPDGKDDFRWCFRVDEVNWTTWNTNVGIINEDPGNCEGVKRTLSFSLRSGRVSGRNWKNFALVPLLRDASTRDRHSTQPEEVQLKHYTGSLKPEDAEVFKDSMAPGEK
UniProt Q8IW41, sequence (whole entry, looked up): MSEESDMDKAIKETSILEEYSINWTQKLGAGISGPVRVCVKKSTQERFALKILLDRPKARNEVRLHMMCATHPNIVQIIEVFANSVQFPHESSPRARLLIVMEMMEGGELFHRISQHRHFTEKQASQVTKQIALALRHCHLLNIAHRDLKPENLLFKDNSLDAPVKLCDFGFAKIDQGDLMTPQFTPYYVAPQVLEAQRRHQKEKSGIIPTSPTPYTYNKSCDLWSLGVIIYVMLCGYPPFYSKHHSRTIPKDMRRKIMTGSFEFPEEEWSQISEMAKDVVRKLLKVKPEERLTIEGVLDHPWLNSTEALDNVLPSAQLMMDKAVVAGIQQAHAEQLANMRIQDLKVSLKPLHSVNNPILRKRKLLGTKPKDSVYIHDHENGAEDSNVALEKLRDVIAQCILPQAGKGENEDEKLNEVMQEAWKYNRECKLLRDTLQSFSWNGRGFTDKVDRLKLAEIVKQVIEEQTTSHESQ
UniProt Q99LR1, sequence (whole entry, looked up): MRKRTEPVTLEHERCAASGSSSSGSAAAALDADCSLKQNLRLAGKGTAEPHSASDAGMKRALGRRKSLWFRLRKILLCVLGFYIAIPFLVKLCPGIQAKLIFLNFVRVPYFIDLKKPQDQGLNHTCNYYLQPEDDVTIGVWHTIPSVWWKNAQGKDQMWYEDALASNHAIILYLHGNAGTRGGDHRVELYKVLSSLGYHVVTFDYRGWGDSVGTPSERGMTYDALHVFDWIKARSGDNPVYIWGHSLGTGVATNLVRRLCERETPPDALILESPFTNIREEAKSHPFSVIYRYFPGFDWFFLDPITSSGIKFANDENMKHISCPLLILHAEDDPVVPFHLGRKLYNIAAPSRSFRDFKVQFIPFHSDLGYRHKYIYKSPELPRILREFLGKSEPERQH

CCCCCCCCCCCCCCN(O)C(=O)CCCCC[C@@H]1NC(=O)[C@H]2CCCN2C(=O)[C@H](Cc2ccccc2)NC(=O)[C@H](Cc2ccccc2)NC1=O  selectivity ratio (HDAC11 (Homo sapiens, UniProt Q96DB2); inhibitor; relative to: Ki HDAC1 over Ki HDAC11): 8.6
CCCCC/C=C\C/C=C\C/C=C\C/C=C\CCCC(=O)NCCc1ccc(O)c(O)c1  Hill coefficient (Trpv1 (Mus musculus, UniProt Q704Y3, S513A); ion current, agonist, whole-cell patch clamp): 1.28 ± 0.1
COc1ccccc1-c1nc2sc3c(c2c(=O)o1)CCC3  Hill slope (Genome polyprotein, 3C protease (rhinovirus B14, UniProt P03303); enzyme activity, inhibitor, SAMDI mass spectrometry; human rhinovirus; 10-point dose response): 1.52
CCCCCC=CC=C1C(=O)C=CC1CC=CCCCC(=O)O (stereo not shown)  isoTOP-ABPP competition ratio (60 kDa heat shock protein, mitochondrial (Homo sapiens, UniProt P10809); competitive isoTOP-ABPP, measured: HSPD1 cysteine peptide; proteome, soluble, MDA-MB-231; 100 µM, together with: iodoacetamide probe; relative to: DMSO over compound-treated, higher = stronger cysteine blockade): 3.7
CS(C)(=O)=Nc1ccc(-c2ccc(-c3nc4cc(O[C@@H]5CO[C@H]6[C@@H]5OC[C@H]6O)[nH]c4cc3F)cc2)cc1  inhibition (MAPKAPK5 (Homo sapiens, UniProt Q8IW41); enzyme activity, inhibitor; 10 µM): 6%
O=C(O)C(/C=C/c1c(Cl)cccc1Cl)=N\Nc1nc(-c2ccccc2)cs1  selectivity index (ache (Electrophorus electricus, UniProt O42275); Ellman; relative to: IC50 BChE over IC50 AChE): 9.68
CC(C)[C@H]1NC(=O)C[C@H]2/C=C/CCSSC[C@@H](NC1=O)C(=O)N[C@H](Cc1cccc3ccccc13)C(=O)NCC(=O)O2  inhibition (RAF1 human; 10 µM): -0.0215%
O=C1NC(=O)c2c1c1cc(F)c[n+]3c1c1c2c2cc(O)ccc2[n]1[Ru-4]312([N]=C=S)[S+]3CC[S+]1CC[S+]2CC3 (stereo not shown)  remaining activity (CHEK1 (Homo sapiens, UniProt O14757); enzyme activity; 100 nM, human enzyme, together with: 10 µM ATP; relative to: untreated): 65%
Clc1cc(Cl)c2c(c1)[C@H](NCCCNc1nc3ncccc3[nH]1)CCO2  selectivity ratio (MARS2 (Homo sapiens, UniProt Q96GW9); enzyme activity; relative to: human IC50 over T. brucei IC50): > 1.8
O=C(CN1CN(c2ccccc2)C2(CCN(C(=O)c3cnc4[nH]ncc4c3)CC2)C1=O)NCC(F)(F)F  inhibition (MAPK10 (Homo sapiens, UniProt P53779); inhibitor; concentration not given): < 50%
Cc1ccc(N2CC3CCC(C2)N3C)cc1C(=O)N[C@H](C)c1cc(-c2cnn(C)c2)nc2ccccc12  remaining activity (USP2 (Homo sapiens, UniProt O75604); enzyme activity; 30 µM, 0.5 h): 100%
COc1ccc2c(c1NC(=O)OCc1ccc(NC(=O)C(CCCNC(N)=O)NC(=O)C(NC(=O)CCCCCN3C(=O)CC(SCC(NC(C)=O)C(=O)O)C3=O)C(C)C)cc1)CCC=C2c1cc(OC)c(OC)c(OC)c1 (mixture of isomers)  payload release (CTSB; enzyme activity, substrate, HPLC; 1.5 h, pH 5.5, 37 °C, human enzyme, together with: CTSB 200 nM): 44%
N[C@H](C(=O)N1CCCC1)C1CCN(c2nccc3c(-c4ncc(Cl)cc4Cl)cccc23)CC1  kcat (PADI4 (Homo sapiens, UniProt Q9UM07); enzyme activity; 0.03932 µM, together with: Ca2+ 0.25 mM): 0.392 s⁻¹ and 0.41 s⁻¹
O=C(NC1CCN(c2ncnc3[nH]cnc23)CC1)c1cccc(NS(=O)(=O)c2ccc(C(F)(F)F)cc2)c1  inhibition (Replicase polyprotein 1ab, nsp14 (Human coronavirus OC43, UniProt P0C6X6); enzyme activity; 50 µM): 86.9%
CN(C)CCCSC(=S)N1CCN(C(=O)/C=C/c2coc3ccccc3c2=O)CC1  MST response (Nucleoprotein (N, Tomato spotted wilt virus, UniProt P25999, Y184A); binding, microscale thermophoresis; 15.62 µM; dose series): 839 a.u.
C#CCCCCOc1ccc2c(c1)CCCN2C(=O)CCl  reactivity ratio (3-ketoacyl-CoA thiolase, mitochondrial (Homo sapiens, UniProt P42765); mass spectrometry profiling; Ramos cell lysate; 100 µM over 10 µM, UniProt P42765; relative to: high over low concentration): 0.565
CCCNC(=O)[C@H]1O[C@@H]1C(=O)N[C@H](C(=O)N1CCC[C@H]1C(=O)OCC1=C2C(C)=CC(C)=[N+]2[B-](C)(C)n2c(C)cc(C)c21)[C@@H](C)CC  kinact/KI ratio (CTSB; relative to: light over dark): 760
C[C@H](NCc1ccc(-c2ccc(C(F)(F)F)cc2)cc1)C(N)=O  inhibition (androgen receptor, human; binding, radioligand binding; biochemical; 1 µM, together with: [3H]methyltrienolone 0.50 nM): -3%
F[B-](F)(F)c1ccc(/N=N/c2ccccc2)cc1.[K+]  switching factor (Chymotrypsinogen A (Bos taurus, UniProt P00766); enzyme activity, inhibitor; together with: Suc-AAPF-AMC; relative to: Ki cis over Ki trans): 1.9 ± 0.3
CC#CC(=O)NC[C@H](NC(=O)[C@H](CC1CCCCC1)NC(=O)[C@H](CCC(N)=O)NC(C)=O)C(=O)N[C@@H](CC(C)C)C(=O)N[C@@H](Cc1ccccc1)C(=O)O  -TΔS (Beta sliding clamp; binding, isothermal titration calorimetry; 37 °C): 6.9 kcal/mol
CC(C)CC(O)(CC(C)C)c1cn(C(=O)N2CCCC2)nn1  activity ratio-of-ratios (Patatin-like phospholipase domain-containing protein 7 (Pnpla7, Mus musculus, UniProt A2AJ88); probe labelling, inhibitor, measured: Pnpla7; mouse, brain; i.p., 0.8 mg/kg, 4 h, protein level; relative to: treated over vehicle mice, lower = stronger inhibition): 1.84
CC[C@H](C)[C@H](NC(=O)[C@H](CCCNC(=N)N)NC(=O)[C@H](CCCNC(=N)N)NC(=O)[C@H](CC(C)C)NC(=O)[C@H](Cc1ccccc1)NC(=O)CNC(=O)CNC(=O)[C@@H](N)Cc1ccc(O)cc1)C(=O)N[C@@H](CCCNC(=N)N)C(=O)N1CCC[C@H]1C(=O)N[C@@H](CCCCN)C(=O)N[C@@H](CC(C)C)C(=O)N[C@@H](CCCCN)C(=O)O  Emax (GPR139 (Homo sapiens, UniProt Q6DWJ6); G protein activation, agonist, BRET, measured: Gα15; HEK-293T/17; 40 µM; relative to: GαoA response): 25%
Cn1nc(CCN)c(=O)c2c(=O)[nH]c(N)nc21  melting temperature shift (folP (Bacteria, UniProt P0AC13); CETSA HiBiT; Escherichia coli, cell lysate; concentration not given; relative to: DMSO): 10.6 °C
COCC1CCCCN1C(=O)n1cc(C(O)(c2ccccc2)c2ccccc2)nn1 (stereo not shown)  SILAC activity ratio (Abhd12 (Mus musculus, UniProt Q99LR1); probe labelling, inhibitor, competitive ABPP-SILAC; mouse T cells; concentration not given, 4 h, protein level; relative to: treated over DMSO cells, lower = stronger inhibition): 1.29
O=C(Cc1ccc(Cl)cc1)N1CCN[C@@H]2COC[C@H](N3CCCC3)[C@H]21 (relative stereo)  loss of binding affinity (OPRK1 (Homo sapiens, UniProt P41145); concentration not given): 4 to 8 fold
O=C(N[C@@H]1c2ccccc2C[C@H]1N1CCCC1)c1ccc(-c2ccnc3[nH]ccc23)nc1  remaining binding (SBK3 (Homo sapiens, UniProt P0C264); binding, competition with immobilised ligand; 3 µM): 7.1%
CN(C)[C@H]1C[C@@]23CC[C@@]4(O2)C(=CC[C@]2(C)[C@@H](c5ccc6ccncc6c5)CC[C@H]24)C=C3[C@@H](O)[C@@H]1O  inhibition (Diacylglycerol kinase theta (DGKQ, Homo sapiens, UniProt P52824); ATP probe labelling, inhibitor, KiNativ profiling; 0.1 µM): 16.5%
C=CC(=O)NC[C@H](NC(=O)[C@H](CC1CCCCC1)NC(=O)[C@H](CCC(N)=O)NC(C)=O)C(=O)N[C@@H](CC(C)C)C(=O)N[C@@H](Cc1ccccc1)C(=O)O  ΔG (Beta sliding clamp; binding, isothermal titration calorimetry; pH 7.4, 37 °C): -8.9 kcal/mol
